Literature values that unrelated publications cite.
Protocols differ between the studies behind these lines. Numbers after ± are the reported error.
STAT3 SH2 domain: Signal transducer and activator of transcription 3, SH2 domain (STAT3, Homo sapiens, UniProt P40763)
UniProt P40763, sequence (whole entry, looked up): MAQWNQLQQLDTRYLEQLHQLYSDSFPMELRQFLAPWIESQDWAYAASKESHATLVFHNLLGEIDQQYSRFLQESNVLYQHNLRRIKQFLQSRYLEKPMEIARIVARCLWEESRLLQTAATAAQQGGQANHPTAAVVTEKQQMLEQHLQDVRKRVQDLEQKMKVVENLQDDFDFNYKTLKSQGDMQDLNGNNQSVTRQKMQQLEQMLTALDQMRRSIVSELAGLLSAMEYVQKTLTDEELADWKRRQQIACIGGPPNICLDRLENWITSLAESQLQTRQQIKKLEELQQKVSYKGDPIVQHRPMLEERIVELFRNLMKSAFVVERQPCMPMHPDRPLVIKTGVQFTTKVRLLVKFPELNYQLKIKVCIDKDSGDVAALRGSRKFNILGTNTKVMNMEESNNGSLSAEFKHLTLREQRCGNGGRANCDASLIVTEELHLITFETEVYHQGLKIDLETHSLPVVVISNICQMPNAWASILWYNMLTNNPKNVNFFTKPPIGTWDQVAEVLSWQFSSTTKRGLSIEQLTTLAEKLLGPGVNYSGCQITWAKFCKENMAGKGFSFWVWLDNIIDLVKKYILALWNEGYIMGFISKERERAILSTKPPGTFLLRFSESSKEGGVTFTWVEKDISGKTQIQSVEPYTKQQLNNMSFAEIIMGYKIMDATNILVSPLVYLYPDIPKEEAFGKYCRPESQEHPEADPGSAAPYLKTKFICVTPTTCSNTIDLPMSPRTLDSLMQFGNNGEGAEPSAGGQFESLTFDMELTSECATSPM
H2-D1 14: H-2 class I histocompatibility antigen, D-B alpha chain, 14 (H2-D1, Mus musculus, UniProt P01899)
UniProt Q5U3Y7, sequence (whole entry, looked up): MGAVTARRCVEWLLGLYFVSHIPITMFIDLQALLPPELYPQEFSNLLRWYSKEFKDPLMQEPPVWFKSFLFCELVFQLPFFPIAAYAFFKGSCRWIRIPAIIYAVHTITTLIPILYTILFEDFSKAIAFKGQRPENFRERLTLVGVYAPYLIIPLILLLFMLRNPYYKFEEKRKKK
UniProt P23975, sequence (whole entry, looked up): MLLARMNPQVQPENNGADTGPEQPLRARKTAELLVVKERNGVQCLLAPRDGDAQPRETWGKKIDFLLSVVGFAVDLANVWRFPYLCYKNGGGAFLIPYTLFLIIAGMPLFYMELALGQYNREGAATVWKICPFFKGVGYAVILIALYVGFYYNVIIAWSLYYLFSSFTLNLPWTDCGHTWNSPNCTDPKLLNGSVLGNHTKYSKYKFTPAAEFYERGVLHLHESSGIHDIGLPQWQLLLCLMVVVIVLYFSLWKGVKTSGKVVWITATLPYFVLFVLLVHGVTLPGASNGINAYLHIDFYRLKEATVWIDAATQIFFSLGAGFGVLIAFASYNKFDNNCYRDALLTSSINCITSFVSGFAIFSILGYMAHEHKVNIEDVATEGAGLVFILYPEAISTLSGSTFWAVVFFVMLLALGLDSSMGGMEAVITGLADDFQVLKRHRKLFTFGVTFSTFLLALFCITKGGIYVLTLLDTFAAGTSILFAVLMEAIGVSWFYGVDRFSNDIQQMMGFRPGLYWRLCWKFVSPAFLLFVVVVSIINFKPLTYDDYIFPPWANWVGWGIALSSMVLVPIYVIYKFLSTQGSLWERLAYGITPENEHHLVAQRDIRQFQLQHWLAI
UniProt Q9R0C9, sequence (whole entry, looked up): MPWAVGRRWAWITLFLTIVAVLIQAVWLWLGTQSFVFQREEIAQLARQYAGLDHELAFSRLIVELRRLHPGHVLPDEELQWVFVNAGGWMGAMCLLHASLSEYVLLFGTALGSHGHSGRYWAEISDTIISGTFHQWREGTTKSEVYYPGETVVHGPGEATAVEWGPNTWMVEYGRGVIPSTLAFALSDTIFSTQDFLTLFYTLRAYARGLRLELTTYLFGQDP
UniProt P28222, sequence (whole entry, looked up): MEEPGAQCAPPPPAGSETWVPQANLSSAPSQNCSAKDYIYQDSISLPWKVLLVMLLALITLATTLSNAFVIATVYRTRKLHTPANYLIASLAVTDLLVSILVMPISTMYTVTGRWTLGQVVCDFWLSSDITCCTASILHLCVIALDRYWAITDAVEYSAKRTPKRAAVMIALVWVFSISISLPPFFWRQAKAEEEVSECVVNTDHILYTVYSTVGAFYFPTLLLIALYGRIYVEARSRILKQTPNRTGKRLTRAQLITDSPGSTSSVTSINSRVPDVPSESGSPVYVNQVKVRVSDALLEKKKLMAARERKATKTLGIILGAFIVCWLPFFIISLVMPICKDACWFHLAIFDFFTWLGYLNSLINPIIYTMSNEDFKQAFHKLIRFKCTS

C=CCN(CC=C)CCc1c[nH]c2ccc(Br)cc12
Ki (Tmem97 (Rattus norvegicus, UniProt Q5U3Y7)): 224 nM

XLPS (N-p-cinnamoyl, O-carbamoyl-Ser, C-benzylamide)
IC50 (STAT3 SH2 domain; inhibitor, fluorescence polarization): 379 ± 49 nM

CCCCn1cc(C(=O)c2cccc3ccccc23)c2ccccc21
Ki (cannabinoid CB1 receptor): 9 nM

XLPT (N-p-cinnamoyl, O-carbamoyl-Thr)
IC50 (STAT3 SH2 domain; inhibitor, fluorescence polarization): 850 ± 85 nM

CCCCCn1cc(C(=O)c2ccc(CC)c3ccccc23)c2ccccc21
Ki (cannabinoid CB1 receptor): 0.46 nM

CCCCCn1cc(C(=O)c2cccc3ccccc23)c2ccccc21
Ki (cannabinoid CB1 receptor; binding): 9 ± 5 nM

C[C@]12CC[C@H]3[C@@H](CCC4=CC(=O)CC[C@@H]43)[C@@H]1CC[C@@H]2O
Ki (human AKR1D1; substrate): 18600 ± 3400 nM

(−)-cocaine hydrochloride
Ki (dopamine transporter, rat; binding; striatum; together with: [3H]WIN35,428): 77 nM

C=CCN(CC=C)CCc1c[nH]c2ccccc12
Ki (HTR1B (Homo sapiens, UniProt P28222); binding; cloned human receptor; together with: [3H]GR125743): > 10000 nM

Oc1ccc2c3c1O[C@H]1c4[nH]c5c(c4C[C@@]4(O)[C@@H](C2)N(CC2CC2)CC[C@]314)C[C@@]1(O)[C@H]2Cc3ccc(O)c4c3[C@@]1(CCN2CC1CC1)[C@H]5O4
Ki (kappa opioid receptor): 0.09 to 1.09 nM

(+)-methamphetamine
Ki (human alpha2-adrenoceptor; together with: [3H]rauwolscine; lower = stronger binding): 6100 nM

C=CCN(CC=C)CCc1c[nH]c2ccc(F)cc12
Ki (Sigmar1 (Rattus norvegicus, UniProt Q9R0C9)): 86 nM

EMRISRIILDFLFLR
EC50 (histidine kinase ComD (Streptococcus pneumoniae serotype 2, UniProt A0A0H2ZM50); reporter gene, agonist; Streptococcus pneumoniae, D39 pcomX::lacZ): > 1000 nM

O=C(c1cccc2ccccc12)c1cn(CCCCCF)c2ccccc12
Ki (CB1 receptor; binding): 1 nM

C[C@]12CC[C@H]3[C@@H](CCC4=CC(=O)CC[C@@]43C)[C@@H]1CC[C@H]2O
Ki (human AKR1D1; substrate): 10000 ± 2200 nM

CN1C(=O)CN=C(c2ccccc2F)c2cc([N+](=O)[O-])ccc21
Ki (TSPO; together with: [3H]Ro5-4864): 138 nM

SGVENPGGYCL (sequence looked up)
IC50 (H2-D1 14; binding, competitor; peptide; purified MHC class I D allele, together with: radiolabelled standard peptide): 414 nM

COC(=O)[C@H]1[C@@H](c2ccc(F)cc2)C[C@@H]2CC[C@H]1N2C
Ki (SLC6A2 (Homo sapiens, UniProt P23975); binding): 635 ± 110 nM

FALISFLLL (sequence looked up)
IC50 (H2-D1 14; binding, competitor; peptide; purified MHC class I D allele, together with: radiolabelled standard peptide): 1.9 nM

CNC1=Nc2ccc(Cl)cc2C(c2ccccc2)=[N+]([O-])C1
Ki (GABA-A receptor benzodiazepine site (zebrafish); zebrafish whole brain membranes; together with: [3H]flunitrazepam): 143 ± 55 nM
